Assay results of several laboratories.
Compare with care: the assays were run in different laboratories.
Target: Mitogen-activated protein kinase 6 (MAPK6, Homo sapiens, UniProt Q16659)

CNC1C[S+]2CC[S+]3CC[S+](C1)[Ru-4]321([N]=C=S)[n]2c3ccc(OC)cc3c3c4c(c5cc(F)c[n+]1c5c32)C(=O)NC4=O (stereo not shown) — remaining binding (KinomeScan; 0.1 µM; reference: untreated): 91%
COc1c(Cl)cccc1Nc1c(-c2ccncc2C#C[C@@]2(C)CCCN2C(=O)/C=C/CN(C)C)[nH]c2c1C(=O)NCC2 — remaining binding (binding, competition with immobilised ligand; 3 µM): 100%
Cc1ccc(-c2c(/C=C(\C#N)C(=O)NC(C)C)n(CCCO)c3ncnc(N)c23)cc1 — remaining binding (cell-free assay, competition with immobilised ligand; 1 µM): 100%
C=CC(=O)N1CCCC(n2c(=O)c3ncccc3n(Cc3ccc(Oc4ccccc4)cc3)c2=O)C1 (stereo not shown) — remaining binding (cell-free assay, competition with immobilised ligand; 1 µM): 93%
CNC(=O)C1CCN(c2cc(C)c(F)cc2NC(=O)c2ccc(-c3cc(O)ccc3C)c(C)c2)CC1 — remaining binding (binding, competition with immobilised ligand; 1 µM): 100%
CCN1CCN(Cc2ccc(C(=O)Nc3ccc(C)c(NCc4cnc5[nH]ccc5c4OC)c3)cc2C(F)(F)F)CC1 — remaining binding (binding, competition with immobilised ligand; 1 µM): 100%
C=CC(=O)N1CCc2ccc(-n3c(=O)ccc4cnc5ccc(-c6cnn(C)c6)cc5c43)cc21 — remaining binding (KINOMEscan; 1 µM; reference: DMSO control): 100%
C=CC(=O)Nc1cc(-c2nn(C3CCN(CCNC(=O)[C@H](C)CCC45CC6CC(CC(C6)C4)C5)CC3)c3ncnc(N)c23)ccc1Oc1ccccc1 — inhibition (inhibitor, KiNativ profiling; biochemical; 2 µM): 21.7%
COc1cc(Nc2nccc(-c3cnn4nc(OC)ccc34)n2)cc(C(F)(F)F)c1 — remaining binding (binding, competition with immobilised ligand; 1 µM): 100%
CC(C)=CC1OC(C)(C)C2C=C3C(=O)C(Cl)=CC(O)C3C3C(O)C4OC4C(=O)C132 (stereo not shown) — remaining binding (cell-free assay, competition with immobilised ligand; 10 µM): 68%
Nc1ncc2c(n1)-c1c([nH]c3ccc(C4=CCOCC4)cc13)CCC2 — remaining binding (binding, competition with immobilised ligand; 1 µM): 92%
Cc1cnc2nc1Nc1cccc(c1)COC/C=C/COCc1cc(ccc1OCCN1CCOCC1)N2 — remaining binding (binding, competition with immobilised ligand; 0.1 µM): 88%
COc1cc(Nc2nc(C)cc(-c3cnn4nc(OC)ccc34)n2)cc(C(F)(F)F)c1 — remaining activity (inhibitor; 1 µM, ERK3; reference: control): 92%
